Measurements collected from several papers.
Every numbered part comes from another study and shows a few of its results, in no order.

Set 1
Target: MAP kinase-activated protein kinase 3 (MAPKAPK3, Homo sapiens, UniProt Q16644)
Chain of UniProt Q16644 (whole entry, looked up): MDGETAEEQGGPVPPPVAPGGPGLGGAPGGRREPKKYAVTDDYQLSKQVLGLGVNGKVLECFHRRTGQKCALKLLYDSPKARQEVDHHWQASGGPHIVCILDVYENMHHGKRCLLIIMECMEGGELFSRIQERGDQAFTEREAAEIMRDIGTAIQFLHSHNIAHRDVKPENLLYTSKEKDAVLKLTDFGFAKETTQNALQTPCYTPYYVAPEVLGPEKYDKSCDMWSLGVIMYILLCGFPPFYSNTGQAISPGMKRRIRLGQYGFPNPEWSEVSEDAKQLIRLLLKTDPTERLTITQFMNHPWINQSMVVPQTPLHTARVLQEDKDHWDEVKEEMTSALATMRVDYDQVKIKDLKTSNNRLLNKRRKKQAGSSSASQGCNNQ
Read-out: enzyme activity
Action: inhibitor
Tested at: 0.5 µM
Reference: control
Quantity: remaining activity
Cc1cn(-c2cc(NC(=O)c3ccc(C)c(Nc4nccc(-c5cccnc5)n4)c3)cc(C(F)(F)F)c2)cn1: 102%
Ic1cccc(CSc2nnc(-c3ccncc3)o2)c1: 109%
O=C(Nc1cccc(Nc2nccc(Nc3cccc(C(F)(F)F)c3)n2)c1)C1CC1: 93%
N#Cc1c(NC(=O)c2cccc3ccccc23)sc2c1CCCC2: 102%
COc1cc2ncnc(Nc3cccc(Cl)c3)c2cc1OC: 92.7%
Cc1cc2ncc(-c3ccccc3)nc2cc1C: 100%
O=C1c2ccccc2-c2n[nH]c3cccc1c23: 99.3%
CCN(CC)CCNC(=O)c1c(C)[nH]c(/C=C2\C(=O)Nc3ccc(F)cc32)c1C: 102%
c1ccc(-c2cnc(Nc3ccc(OCCN4CCCC4)cc3)s2)cc1: 97.6%
Cc1nc2cc3nc(-c4cccs4)cnc3cc2n1C: 102%
CCN(CC)C(=O)c1ccc(Nc2nc(OCC3CCCCC3)c3[nH]cnc3n2)cc1: 103%
CCN(CC)CCNC(=O)c1c(C)[nH]c(/C=C2\C(=O)Nc3ccc(Cl)cc32)c1C: 101%
CN([C@@H](Cc1ccc(OS(=O)(=O)c2cccc3cnccc23)cc1)C(=O)N1CCN(c2ccccc2)CC1)S(=O)(=O)c1cccc2cnccc12: 101%
CN(C)C[C@H]1CCn2c(c(C3=C(c4cn(C)c5ccccc45)C(=O)NC3=O)c3ccccc32)C1: 97.9%
COc1cc2ncnc(Nc3ccc(O)c(Br)c3)c2cc1OC: 96.2%
Cn1nc2c3c(cccc31)C(=O)c1ccccc1-2: 104%
COc1cc2c(cc1OC)-c1[nH]nc(Nc3cccc(F)c3)c1C2: 90.8%
O=C(NC(NC(=S)Nc1ccc(F)c([N+](=O)[O-])c1)C(Cl)(Cl)Cl)C(c1ccccc1)c1ccccc1 (stereo not shown): 106%
N#C/C(=C\c1ccc(O)c(O)c1)C(=O)NCc1ccccc1: 102%
Nc1cccc(-c2cc3c(Oc4cccc(O)c4)ncnc3[nH]2)c1: 97.6%
CCOc1nc(NC(=O)Cc2cc(OC)ccc2OC)cc(N)c1C#N: 101%
C[C@@H]1CCN(C(=O)CC#N)C[C@@H]1N(C)c1ncnc2[nH]ccc12: 100%
O=c1cc(-c2cccc3c2Sc2ccccc2S3)oc(N2CCOCC2)c1: 102%
c1ccc(-c2[nH]ncc2-c2ccnc3ccccc23)nc1: 92.9%
O=C1C(Cl)=C(N2C(=O)CCC2=O)C(=O)c2ccccc21: 103%

Set 2
Target: Alpha-2B adrenergic receptor (ADRA2B, Homo sapiens, UniProt P18089)
Chain of UniProt P18089 (whole entry, looked up): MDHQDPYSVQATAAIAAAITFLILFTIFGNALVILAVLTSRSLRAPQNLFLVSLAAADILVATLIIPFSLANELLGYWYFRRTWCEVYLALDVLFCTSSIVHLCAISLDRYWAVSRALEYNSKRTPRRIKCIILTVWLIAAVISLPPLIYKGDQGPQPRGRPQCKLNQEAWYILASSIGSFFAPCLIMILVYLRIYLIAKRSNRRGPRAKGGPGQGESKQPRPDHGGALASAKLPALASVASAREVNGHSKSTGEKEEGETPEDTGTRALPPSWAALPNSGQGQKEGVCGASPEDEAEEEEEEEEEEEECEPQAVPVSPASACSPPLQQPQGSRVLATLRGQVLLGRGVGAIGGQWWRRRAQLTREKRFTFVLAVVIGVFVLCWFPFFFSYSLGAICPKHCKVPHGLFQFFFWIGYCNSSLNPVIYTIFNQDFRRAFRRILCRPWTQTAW
Read-out: ligand displacement
Tested at: 10 µM
Quantity: inhibition
O=C(NCCCC1CCCCC1)c1ccc(CNC(=O)c2cnn(-c3ccccc3)c2C(F)(F)F)cc1: 1.13%
CNC(=O)Nc1ccc2c(c1)CC[C@]21OC(=O)N(CC(=O)N(Cc2ccc(F)cc2)[C@@H](C)C(F)(F)F)C1=O: 26.5%
COc1cccc(NC(=O)c2nc3scc(CN(C)Cc4ccccc4)c3c(=O)[nH]2)c1: 17.4%
COc1cc(N[C@@H]2CCCC[C@]2(O)C(F)(F)F)ccc1F: -0.18%
CCOc1ccc(S(=O)(=O)Nc2ccc(Cl)cc2C#Cc2cnc(C(=O)O)cc2OC)c2ncccc12: 15%
c1ccc(C2CCN(c3cnc4c(N5CCOCC5)nccn34)CC2)cc1: 31.4%
CC(=O)Nc1ncc(CN2CCC[C@H](Cc3cc(C)nc(C)c3)C2)s1: 44.8%
C[C@@H]1CN(c2cc(-c3n[nH]c4ccc(OC5(C)CC5)cc34)ncn2)C[C@H](C)O1: 6.1%
O=C(NS(=O)(=O)c1ccc(NCC2CCOCC2)c([N+](=O)[O-])c1)c1ccc(N2CCN(Cc3ccc(C(F)(F)F)cc3-c3ccc(Cl)cc3)CC2)cc1Oc1cnc2[nH]ccc2c1: 15.6%
Cn1nc(C(=O)NCc2ccc(C(=O)O)cc2)cc1-c1ccc2[nH]ccc2c1: 6%
O=C(N[C@H]1CCCCC/C=C\C2C[C@@]2(C(=O)O)NC(=O)[C@@H]2C[C@@H](Oc3ccncc3)CN2C1=O)OC1CCCC1 (stereo partly shown): 8.15%
CN(C)CC#Cc1ccc(OCCCc2sc(N3CCc4cccc(C(=O)Nc5nc6ccccc6s5)c4C3)nc2C(=O)O)c(F)c1: 17.2%

Set 3
Target: Calcium/calmodulin-dependent protein kinase type II subunit alpha (CAMK2A, Homo sapiens, UniProt Q9UQM7)
Chain of UniProt Q9UQM7 (whole entry, looked up): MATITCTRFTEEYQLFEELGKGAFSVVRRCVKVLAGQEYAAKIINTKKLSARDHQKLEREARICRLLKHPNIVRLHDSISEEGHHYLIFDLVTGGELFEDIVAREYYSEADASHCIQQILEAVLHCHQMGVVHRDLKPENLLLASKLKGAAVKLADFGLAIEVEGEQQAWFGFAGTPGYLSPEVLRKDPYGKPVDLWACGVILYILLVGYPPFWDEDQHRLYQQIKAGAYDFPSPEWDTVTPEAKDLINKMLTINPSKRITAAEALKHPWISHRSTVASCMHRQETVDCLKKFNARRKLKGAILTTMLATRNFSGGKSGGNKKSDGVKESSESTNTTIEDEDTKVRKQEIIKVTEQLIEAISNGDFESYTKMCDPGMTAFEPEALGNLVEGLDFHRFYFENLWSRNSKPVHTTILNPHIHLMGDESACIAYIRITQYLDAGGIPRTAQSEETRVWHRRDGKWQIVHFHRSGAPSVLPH
Read-out: enzyme activity
Action: inhibitor
Tested at: 10 µM
Quantity: inhibition
CC(=O)OCC(=O)NCCCOc1cccc(CN2CCCCC2)c1: -4%
O=C1C[C@@H](c2ccc(O)c(O)c2)Oc2cc(O[C@@H]3O[C@H](CO)[C@@H](O)[C@H](O)[C@H]3O)cc(O)c21: 0%
CC1(C)[C@@H](O[C@@H]2OC[C@H](O[C@@H]3O[C@H](CO)[C@@H](O)[C@H](O)[C@H]3O[C@@H]3OC[C@@H](O)[C@H](O)[C@H]3O)[C@H](O)[C@H]2O[C@@H]2O[C@H](CO)[C@@H](O)[C@H](O)[C@H]2O)CC[C@]2(C)[C@H]3CC[C@]45OC[C@@]6(CC[C@](C)(C=O)C[C@H]64)[C@H](O)C[C@@]5(C)[C@]3(C)CC[C@@H]12: -89%
O=c1c(O[C@@H]2O[C@H](CO)[C@H](O)[C@H](O)[C@H]2O)c(-c2ccc(O)c(O)c2)oc2cc(O)cc(O)c12: -43%
CCOC(=O)/C=C/c1ccccc1: -25%
CC1(C)C=Cc2c(ccc3c2OC[C@@H](c2ccc(O)cc2O)C3)O1: 50%
O=C1c2cccc3c2[C@H](CCC3)CN1[C@@H]1CN2CCC1CC2: -9%
O=C1Nc2ccccc2C1=O: -6%
Cc1occc1SSc1ccoc1C: -5%
C[C@H](CCC(=O)NCC(=O)NCCS(=O)(=O)O)[C@H]1CC[C@H]2[C@@H]3[C@H](O)C[C@@H]4C[C@H](O)CC[C@]4(C)[C@H]3C[C@H](O)[C@]12C: -4%

Set 4
Cell line: A-375
Tested at: 100 µM
Time: 18 h
Quantity: viability
CC(C(=O)O)c1ccc(-c2ccccc2)c(F)c1 (stereo not shown): 111%
CCn1cc(C(=O)O)c(=O)c2cc3c(cc21)OCO3: 110%
O=C1CCC(N2C(=O)c3ccccc3C2=O)C(=O)N1 (stereo not shown): 102%
CCn1nc(C(=O)O)c(=O)c2cc3c(cc21)OCO3: 81.2%
C[C@]12CC[C@@H]3c4ccc(OC(=O)c5ccccc5)cc4CC[C@H]3[C@@H]1CC[C@@H]2O: 8.38%
CN(C)c1nc(N(C)C)nc(N(C)C)n1: 89.4%
Cc1cc(C2CCCCC2)n(O)c(=O)c1: 80.6%
CCN(CC)CCNC(=O)c1cc(Cl)c(N)cc1OC: 89.7%
CCN(CC)CCNC(=O)c1cc(S(C)(=O)=O)ccc1OC: 90.9%
C[C@@H](c1nc(-c2ccc(C#N)cc2)cs1)[C@](O)(Cn1cncn1)c1cc(F)ccc1F: 48.1%
COc1ccccc1N1CCN(CC(O)COc2cccc3ccccc23)CC1 (stereo not shown): 12.6%
